Results pooled from the literature.
Compare with care: the assays were run in different laboratories.

Compound | assay | test system | setting | how to read | adverse event incidence [%]
O=C1CCc2ccc(OCCCCN3CCN(c4cccc(Cl)c4Cl)CC3)cc2N1 | measured: Tremor | patients, CYP2D6 ultrarapid metabolizers | dose not given, long-acting oral or depot |  | 14
NCCONC(=O)[C@@H]1CC[C@@H]2CN1C(=O)N2OS(=O)(=O)O | measured: leading to dose reduction | healthy Chinese men | intravenous, 2 g, treatment-emergent |  | 0
FC(F)(F)c1ccc(CNc2ccc(Cc3c[nH]c4ncc(Cl)cc34)cn2)cn1 | measured: Hypophosphataemia | patients with advanced solid tumours | oral, dose not given, all grades, possibly related to drug |  | 15
CC[C@H](C)CCCCC(=O)N[C@@H](CCN)C(=O)N[C@H](C(=O)N[C@@H](CCN)C(=O)N[C@H]1CCNC(=O)[C@H]([C@@H](C)O)NC(=O)[C@H](CCN)NC(=O)[C@H](CCN)NC(=O)[C@H](CC(C)C)NC(=O)[C@@H](Cc2ccccc2)NC(=O)[C@H](CCN)NC1=O)[C@@H](C)O | measured: nervous system disorders | normal renal function subjects | IV, 0.75 mg/kg |  | 75
CC(C)n1c(Nc2cccnc2)nc2cnc(Nc3ccc(N4CCN(C)CC4)cc3)nc21 | measured: Hyperuricemia | healthy male subjects | oral, 100 mg, added: gemfibrozil |  | 0
CC[C@H](C)[C@H](NC(=O)[C@H](Cc1ccccc1)NC(=O)[C@H](CCC(=O)O)NC(=O)[C@H](CCCCNC(=O)COCCOCCNC(=O)COCCOCCNC(=O)CC[C@H](NC(=O)CCCCCCCCCCCCCCCCC(=O)O)C(=O)O)NC(=O)[C@H](C)NC(=O)[C@H](C)NC(=O)[C@H](CCC(N)=O)NC(=O)CNC(=O)[C@H](CCC(=O)O)NC(=O)[C@H](CC(C)C)NC(=O)[C@H](Cc1ccc(O)cc1)NC(=O)[C@H](CO)NC(=O)[C@H](CO)NC(=O)[C@@H](NC(=O)[C@H](CC(=O)O)NC(=O)[C@H](CO)NC(=O)[C@@H](NC(=O)[C@H](Cc1ccccc1)NC(=O)[C@@H](NC(=O)CNC(=O)[C@H](CCC(=O)O)NC(=O)C(C)(C)NC(=O)[C@@H](N)Cc1cnc[nH]1)[C@@H](C)O)[C@@H](C)O)C(C)C)C(=O)N[C@@H](C)C(=O)N[C@@H](Cc1c[nH]c2ccccc12)C(=O)N[C@@H](CC(C)C)C(=O)N[C@H](C(=O)N[C@@H](CCCNC(=N)N)C(=O)NCC(=O)N[C@@H](CCCNC(=N)N)C(=O)NCC(=O)O)C(C)C | measured: Constipation | type 2 diabetes patients | dose not given | relative to: subjects | 20
Cc1c(C(=O)O)ccc2c3n(nc12)[C@@H]1[C@H](C3)N(CC2CC2)[C@@]2(C(=O)Nc3cc(Cl)ccc32)[C@H]1c1cccc(Cl)c1F | phase Ia trial, measured: Diarrhea | cancer patients | oral, dose not given, all patients all grades |  | 38.9
CNC(=O)c1ccc(-c2cnc3ncc(Cc4ccc5ncccc5c4)n3n2)cc1F | phase 1 clinical trial, measured: upper abdominal pain | all expansion cohorts | oral, 600 mg twice daily, grade 3 or 4 |  | 0
